Values quoted from earlier work as cited in several papers.
Protocols differ between the studies behind these lines. ± marks the error that the study gave.

Compound | target | assay | test system | setting | how to read | endpoint | value
NC(=O)c1ncn([C@@H]2O[C@H](CO)[C@@H](O)[C@H]2O)n1 | IMPDH2 | inhibitor | – | – | – | IC50 | 100 to 250 nM
COc1ccc2c(c1)[nH]c1c(C)nccc12 | human CDK7/cyclin H | kinase activity, inhibitor | – | – | – | IC50 | > 10000 nM
CCC/C=C/C/C=C/C=C/C=N/NN=O | fatty acyl-CoA ligases, long chain | – | cultured cells | concentration not given | – | acyl-CoA reduction | ~40%
O=C(Cc1cccs1)N[C@@H]1C(=O)N2C(C(=O)O)=C(/C=C/c3ccc([N+](=O)[O-])cc3[N+](=O)[O-])CS[C@H]12 | NDM-1 metallo-beta-lactamase wild type | substrate | – | – | – | kcat | 15.4 ± 0.4 s⁻¹
O=C(C1CCCCC1)N1CC(=O)N2CCc3ccccc3[C@H]2C1 | TRPM8, human | agonist | – | – | – | EC50 | ~20000 nM
CC[C@H]1C[C@H](C)[C@@]2(NC1=O)O[C@@H](C[C@H](O)[C@@H](C)CC/C=C/C=C(\C)[C@@H]1C/C=C/C=C/[C@H](O)[C@H](C)[C@@H](O)[C@@H](CCC(C)=O)C(=O)N[C@@H](C(C)C)C(=O)N[C@@H](Cc3cccc(O)c3)C(=O)N3CCC[C@H](N3)C(=O)O1)[C@H](C)[C@H](O)[C@@H]2C | IMPDH2 | binding, modulator | – | together with: PPIA | – | EC50 | 11.5 nM
C1=C2CCCN[C@H]2[C@@H]2C[C@H]1[C@H]1CCCCN1C2 | cathepsin L | – | – | concentration not given | – | activity class | inactive
CC=O | ADH1 H48S Saccharomyces cerevisiae | reduction, substrate | – | pH 7.3, 30 °C | – | kcat | 2700 s⁻¹
O=C(NCCCNc1nc(Nc2ccc(N3CCOCC3)cc2)ncc1C1CC1)C1CCC1 | TBK1 | – | – | – | – | IC50 | 6 nM
O=[N+]([O-])O | anion exchanger, human | substrate | neutrophils | – | – | Km | 8.4 mM
O=S(=O)(O)C(F)(F)C(F)(F)C(F)(F)C(F)(F)C(F)(F)C(F)(F)C(F)(F)C(F)(F)F | PPARα (human) | reporter gene, agonist, Gal4 transactivation | human hepatocarcinoma cell line | – | baseline: positive control | efficacy | 66%
Clc1cc2c(cc1Cl)Oc1cc(Cl)c(Cl)cc1O2 | Atlantic cod AHR2a | reporter gene, agonist | Gadus morhua | – | – | EC50 | > 10 nM
O=C(O)C(F)(F)C(F)(F)C(F)(F)C(F)(F)C(F)(F)C(F)(F)C(F)(F)F | PPARα (human) | reporter gene, agonist, Gal4 transactivation | human hepatocarcinoma cell line | – | baseline: positive control | efficacy | > 90%
O=C(O)C(F)(F)C(F)(F)C(F)(F)C(F)(F)C(F)(F)C(F)(F)C(F)(F)F | OATP2B1 | apical influx | Caco-2 cells | gut, area 1 cm² | – | Jmax | 141 pmol/min

Repeated from above:
Compound | target | assay | test system | setting | how to read | endpoint | value
CCC/C=C/C/C=C/C=C/C=N/NN=O | fatty acyl-CoA ligases, long chain | – | cultured cells | concentration not given | – | acyl-CoA reduction | ~40%
O=C(Cc1cccs1)N[C@@H]1C(=O)N2C(C(=O)O)=C(/C=C/c3ccc([N+](=O)[O-])cc3[N+](=O)[O-])CS[C@H]12 | NDM-1 metallo-beta-lactamase wild type | substrate | – | – | – | kcat | 15.4 ± 0.4 s⁻¹
